Measured values collected from several papers.
Protocols differ between the studies behind these lines.
B1: RABH1B (Arabidopsis thaliana, UniProt O80501); chain MAPVSALAKYKLVFLGDQSVGKTSIITRFMYDKFDNTYQATIGIDFLSKTMYLEDRTVRLQLWDTAGQERFRSLIPSYIRDSSVAVIVYDVASRQSFLNTTKWIDEVRTERGSDVIVVLVGNKTDLVDKRQVSIEEAEAKARELNVMFIETSAKAGFNIKALFRKIAAALPGMETLSSTKQEDMVDVNLKSSNANASLAQQQSGGCSC
B2: enzyme (Ectocarpus siliculosus, UniProt D7FYY3); chain KTASLATVSSLGIDKATGITKPSTVHHNLPYPQVFEHETKNKEGESTANGTFCVSTGQFTGRSPKDKYFVQQAPSDKTLDWGKINVGVAPKVFENIYNKAVKHYNDNVDSMYVFDGYCGTSPKSRKNVRIITELAWQHHFAKNMFIRPETEAETAGFKPDFTIINACKVVNDDYKELGLNSEVAVVFNVEERKAVITGTWYGGEMKKGIFSMMNYWLPLDGVMAMHCSANKGKNGDTALFFGLSGTGKTTLSADPERYLIGDDEHGWDDDGIFNFEGGCYAKTINLSHENEPEIYDAIKRDALLENVVIKDNGEPDYTDVSKTENTRVSYPIYHIDNYEPSGMGGHPNSVIFLTCDAFGILPPVSRLSAGQAMYHFLSGYTAKVAGTERGVTEPTPNFSAGFGAAFLTLHPTMYADLLQKKLAKHGTQCYLINTGWTGGGYGVGKRMSIKATRACVDAVLDGSIGKTTFTPDPVFGFEVPAELPGVPAKVLNPREAWSDKKGYDATRTKLAGMFKDNFTKFVKPGVTDYTSYGPK
B3: UGT1A7 (Homo sapiens, UniProt Q9HAW7); chain GKLLVVPMDGSHWFTMQSVVEKLILRGHEVVVVMPEVSWQLGRSLNCTVKTYSTSYTLEDQDREFMVFADARWTAPLRSAFSLLTSSSNGIFDLFFSNCRSLFNDRKLVEYLKESCFDAVFLDPFDACGLIVAKYFSLPSVVFARGIFCHYLEEGAQCPAPLSYVPRLLLGFSDAMTFKERVWNHIMHLEEHLFCPYFFKNVLEIASEILQTPVTAYDLYSHTSIWLLRTDFVLEYPKPVMPNMIFIGGINCHQGKPVPMEFEAYINASGEHGIVVFSLGSMVSEIPEKKAMAIADALGKIPQTVLWRYTGTRPSNLANNTILVKWLPQNDLLGHPMTRAFITHAGSHGVYESICNGVPMVMMPLFGDQMDNAKRMETKGAGVTLNVLEMTSEDLENALKAVINDKSYKENIMRLSSLHKDRPVEPLDLAVFWVEFVMRHKGAPHLRPAAHDLTWYQYHSLDVIGFLLAVVLTVAFITFKCCAYGYRKCLGKKGRVKKAHKSKTH
B4: enzyme (UniProt A0A0P0CH59); chain MRIALFSDIHANLPALEAVLANMETQQLDAIYCLGDLVGYAPWPNEVVAEIRKRRIPTIAGNYDEGVGLWSPNCGCAYKTDTEKDLGQQSIDFTNNVVTEETRKYLRMLPRQLRLTFMDGSKEENKIELLLVHGSPRKINEYLFEDRPEKSFLKMMEEANADLLFFGHTHKPYHRAMPYEHEGQTRYRHAINIGSVGKPKDGDPRTGYVVVELTPESSLTQKDSIKVEFIRVPYDVETAAQAVEASPLPNEFAQMLRTA
B5: enzyme (Sargassum horneri, UniProt A0A097IUG6); chain SPMAVASPSGFQKAMKTTLSSLGIDKATGITKPTTIYRNLPYPEVFKHEEQNKEGEVTKNGTFCVSTGQFTGRSPKDKYFVKQAPSDGKLDWGKINKGVASEVYKNIYDKAVKHYNTNVDKMYVFDGYCGTSPKSRKNVRIITELAWQHHFAKNMFIRPETEEEVANFVPDFTIINACKIVNEDYKELGLNSEVAVVFNVEESKAVITGTWYGGEMKKGIFSMMNYWLPLDGVMSMHCSANKGKDGDTALFFGLSGTGKTTLSADPARYLIGDDEHGWDDDGIFNFEGGCYAKTVNLSRENEPEIYDAIKRDALLENVIIKKNGEPDYADVSRTENTRVSYPIYHIDNYEPSGMGDHPKSIVFLTCDAFGVLPPVSRLSPGQAMYHFLSGYTAKVAGTERGVTEPTPNFSAGFGAAFLTLHPTVYADLLQEKLDKHGTQCFLINTGWTGGGYGVGKRMSIKATRACVDAVLDGSINKTKFTKEPVFGFEVPQELPNVPSKVLNPREAWSDKASYDATRTKLGDMFKNNFTKFVKPGMTDYTAYGPK
B6: enzyme (Trypanosoma brucei, UniProt Q9GV41); chain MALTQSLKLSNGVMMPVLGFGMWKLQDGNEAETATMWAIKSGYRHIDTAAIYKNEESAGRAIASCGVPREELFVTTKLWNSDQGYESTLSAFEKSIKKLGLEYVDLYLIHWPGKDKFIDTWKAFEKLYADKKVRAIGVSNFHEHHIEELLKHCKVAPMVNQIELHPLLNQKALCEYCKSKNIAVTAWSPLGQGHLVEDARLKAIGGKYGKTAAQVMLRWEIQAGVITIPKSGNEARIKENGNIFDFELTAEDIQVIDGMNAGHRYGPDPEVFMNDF
B7: enzyme (UniProt A0A097IUE6); chain TKRAMMATVSSLGIDKATGITKPSKVHRNLPYPEVFEHEQKNKEGEVTKNGTFCVSTGAFTGRSPKDKYFVHQSPSCDTLDWGKINVGVAPDVYKNIYEKAVKHYNENVDSMYVFDGYCGTSPKSRKNVRIITELAWQHHFAKNMFIRPDSEKEVENFNPDFTIINACKVLNKDYKELGLNSDVAVIFNVEEKMAVITGTWYGGEMKKGIFSMMNYWLPLDGIMAMHCSANKGKGGDTALFFGLSGTGKTTLSADPDRYLIGDDEHGWDDHGIFNFEGGCYAKTVNLSKDNEPEIYDAIKRDALLENVIIKSDGEPDYTDTSRTENTRVSYPIYHIDNHEPSGMGGHPTSIIFLTCDAFGVLPPVSRLSGGQAMYHFLSGYTAKVAGTERGVTEPTPNFSACFGAAFLTLHPTKYADLLQKKLDKHQTQCFLINTGWTGGGYGVGKRMSIKATRACVNAVLDGSINKANFTNDEVFGFEVPAELPEVPAQVLNPRAAWSDKEKYDNTRIKLAGMFKDNFKKFIKEGATDYSSYGPK
B8: enzyme C33S (UniProt A0A0P0CH59); chain MRIALFSDIHANLPALEAVLANMETQQLDAIYSLGDLVGYAPWPNEVVAEIRKRRIPTIAGNYDEGVGLWSPNCGCAYKTDTEKDLGQQSIDFTNNVVTEETRKYLRMLPRQLRLTFMDGSKEENKIELLLVHGSPRKINEYLFEDRPEKSFLKMMEEANADLLFFGHTHKPYHRAMPYEHEGQTRYRHAINIGSVGKPKDGDPRTGYVVVELTPESSLTQKDSIKVEFIRVPYDVETAAQAVEASPLPNEFAQMLRTA
B9: enzyme (Saccharina japonica, UniProt A0A097IUE3); chain QQLGKTASMATVSSLGIDKATGIKNPTTVHRNLPYPEVFEHEVKHKEGEVTSNGTFCVSTGQFTGRSPKDKYFVKQAPSDKNLDWGKVNVGVAPDVFKNIYKKAVKHYNDNVEKMYVFDGYCGTSPKSRKNVRIITELAWQHHFAKNMFIRPESEAEVADFAPDFTIVNACKVVNDDYKELGLNSEVAVVFNVEERKAVITGTWYGGEMKKGIFSMMNYWLPLDGVMAMHCSANKGKNGDTALFFGLSGTGKTTLSADPDRYLIGDDEHGWDDDGIFNFEGGCYAKTINLSHKNEPEIYDAIKKDALLENVIIKGNGDPDYTDVSKTENTRVSYPIYHIDNYEPSGMGGHPNSIVFLTCDAFGVLPPVSRLSAGQAMYHFLSGYTAKVAGTERGVTEPTPNFSACFGAAFLTLHPTAYADLLQKKLDTHGTQCFLINTGWTGGGYGVGKRMSIKATRACVNSVLDGSINKTKFTADPVFGFEVPADLPGVPSKVLNPRDAWSDKESYDTTRTKLAGMFKDNFTKFVKPGVTNYTAYGPK
B10: RPT2 (Arabidopsis thaliana, UniProt Q682S0); chain MATEGKNPINMNSMSSSLARTGQWVFSQDIPTDVVVEVGEANFSLHKFMLVAKSNYIRKLIMESKDSDVTRINLSDIPGGPEIFEKAAKFCYGVNFEITVQNVAALHCAAEFLQMTDKYCDNNLAGRTQDFLSQVALSSLSGAIVVLKSCEILLPISRDLGIVRRCVDVVGAKACNEAMFPCRTPPNWWTEELCILDVDFFSDVVSSMKQRGVKPSSLASAIITYTEKSLRDLVRDHSGRGVKYSDPGDNESDERSQQRDLVQSIVSLLPSDKGLFPVNFLCSLLRCAVFLDTSLTCKNELEKRISVVLEHVSVDDLLIPSFTYDGERLLDLDSVRRIISAFVEKEKNVGVFNGGDFNRGVCSVSLQRVAKTVDSYLAEIATYGDLTISKFNAIANLVPKSARKSDDDLYRAIDIFLKAHPNLDEIEREKVCSSMDPLKLSYDARLHASQNKRLPVNIVLHALYYDQLKLRSGVAEQEERAVVVLPEALKTRSQLQADTTLAKENEALRSELMKMKMYVSDMQKNKNGAGASSSNSSSLVSSKKSKHTFFSSVSKKLGKLNPFKNGSKDTSHIDEDLGGVDITKPRRRRFSIS
UniProt P05181, sequence (whole entry, looked up): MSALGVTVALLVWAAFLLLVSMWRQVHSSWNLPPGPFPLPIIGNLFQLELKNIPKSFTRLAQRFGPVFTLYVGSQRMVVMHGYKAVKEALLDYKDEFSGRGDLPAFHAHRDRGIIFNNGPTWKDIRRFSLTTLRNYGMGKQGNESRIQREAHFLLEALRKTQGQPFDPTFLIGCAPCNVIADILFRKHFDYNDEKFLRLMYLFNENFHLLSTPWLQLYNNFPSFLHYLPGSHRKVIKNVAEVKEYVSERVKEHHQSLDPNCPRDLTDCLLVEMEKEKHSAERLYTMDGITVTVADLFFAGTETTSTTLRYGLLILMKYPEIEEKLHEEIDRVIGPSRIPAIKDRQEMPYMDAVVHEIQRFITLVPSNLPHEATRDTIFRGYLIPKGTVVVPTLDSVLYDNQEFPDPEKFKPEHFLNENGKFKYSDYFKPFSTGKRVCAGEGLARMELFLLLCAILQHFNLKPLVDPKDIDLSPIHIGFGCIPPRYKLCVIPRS

Molecule	target or system	test	system	setting	endpoint	value
B1 (RABH1B)	Nc1nc2c(ncn2[C@@H]2O[C@H](COP(=O)(O)OP(=O)(O)OP(=O)(O)O)[C@@H](O)[C@H]2O)c(=O)[nH]1	steady-state kinetics		pH 7.5, 30 °C	Vmax	2.4 µmol/min
gdh N192S/N97F (Bacillus subtilis)	NC(=O)c1ccc[n+]([C@@H]2O[C@H](COP(=O)(O)OP(=O)(O)OC[C@H]3O[C@@H](n4cnc5c(N)ncnc54)[C@H](O)[C@@H]3O)[C@@H](O)[C@H]2O)c1	steady-state kinetics		pH 7, 55 °C	Vmax	327 µmol/min/mg
B2 (enzyme)	C=C(OP(=O)(O)O)C(=O)O	steady-state kinetics		pH 5.5, 25 °C, together with: 2 mM ADP	Vmax	16.8 µmol/min/mg
enzyme (Chlamydomonas reinhardtii, UniProt A0A2K3D977)	O=C(CO)COP(=O)(O)O	steady-state kinetics		pH 7.5, together with: NADH 500 µM	Vmax	193 µmol/min/mg
B3 (UGT1A7)	CC(C)=CCc1cc2c(cc1O)O[C@H](c1ccc(O)cc1)CC2=O	steady-state kinetics		pH 7.4	Vmax	0.012 µmol/min/mg
B4 (enzyme)	O=[N+]([O-])c1ccc(OP(=O)(O)O)cc1	steady-state kinetics		37 °C, together with: Ni2+ 0.25 mM	Vmax	0.139 µmol/min/mg
AGCGAGCGAGCG (dsDNA)	Fibroin-modulator-binding protein-1 99-193 (Bombyx mori, UniProt Q5FBS0)	ITC	double-stranded DNA, one strand shown		Kd	9 µM
gdh N192L/N97F (Bacillus subtilis)	NC(=O)c1ccc[n+]([C@@H]2O[C@H](COP(=O)(O)OP(=O)(O)OC[C@H]3O[C@@H](n4cnc5c(N)ncnc54)[C@H](O)[C@@H]3O)[C@@H](O)[C@H]2O)c1	steady-state kinetics		pH 7, 50 °C	Vmax	323 µmol/min/mg
CYP2E1 (Homo sapiens, UniProt P05181)	O=[N+]([O-])c1ccc(O)cc1	steady-state kinetics		pH 7.4, 37 °C	Vmax	0.00188 µmol/min/mg
B5 (enzyme)	Nc1ncnc2c1ncn2[C@@H]1O[C@H](COP(=O)(O)OP(=O)(O)O)[C@@H](O)[C@H]1O	steady-state kinetics		pH 6.5, 25 °C, together with: 16 mM PEP	Vmax	37.5 µmol/min/mg
enzyme (Cyanidioschyzon merolae, UniProt M1V8C6)	O=C(O)[C@H](O)CO	steady-state kinetics		pH 7.8, 30 °C	Vmax	28.9 µmol/min/mg
B6 (enzyme)	NC(=O)C1=CN([C@@H]2O[C@H](COP(=O)(O)OP(=O)(O)OC[C@H]3O[C@@H](n4cnc5c(N)ncnc54)[C@H](OP(=O)(O)O)[C@@H]3O)[C@@H](O)[C@H]2O)C=CC1	steady-state kinetics		pH 7, 37 °C, cofactor varied	Vmax	1.5 µmol/min/mg
B7 (enzyme)	O=C(O)O	steady-state kinetics		pH 6.5, 25 °C	Vmax	61.6 µmol/min/mg
gdh E198G/N97F (Bacillus subtilis)	NC(=O)c1ccc[n+]([C@@H]2O[C@H](COP(=O)(O)OP(=O)(O)OC[C@H]3O[C@@H](n4cnc5c(N)ncnc54)[C@H](O)[C@@H]3O)[C@@H](O)[C@H]2O)c1	steady-state kinetics		pH 7, 55 °C	Vmax	248 µmol/min/mg
B8 (enzyme C33S)	O=[N+]([O-])c1ccc(OP(=O)(O)O)cc1	steady-state kinetics		pH 7, 37 °C, together with: Ni2+ 0.25 mM	Vmax	0.136 µmol/min/mg
B9 (enzyme)	C=C(OP(=O)(O)O)C(=O)O	steady-state kinetics		pH 6.5, 25 °C, together with: 2 mM ADP	Vmax	23 µmol/min/mg
B10 (RPT2)	Nc1nc2c(ncn2[C@@H]2O[C@H](COP(=O)(O)OP(=O)(O)OP(=O)(O)O)[C@@H](O)[C@H]2O)c(=O)[nH]1	steady-state kinetics		pH 7.5, 30 °C	Vmax	2.87 µmol/min
UGT1A3 (Homo sapiens, UniProt P35503)	O=c1cc(C(F)(F)F)c2ccc(O)cc2o1	steady-state kinetics		37 °C, not purified	Vmax	0.000616 µmol/min/mg
